Measured values collected from several papers.
Every numbered part comes from another study and shows a few of its results, in no order. Several values in a cell are separate wells, animals, samples, runs or records. ± marks the error that the study gave. ≈ marks a conversion by molar mass, not a printed value.
UniProt Q99759, sequence (whole entry, looked up): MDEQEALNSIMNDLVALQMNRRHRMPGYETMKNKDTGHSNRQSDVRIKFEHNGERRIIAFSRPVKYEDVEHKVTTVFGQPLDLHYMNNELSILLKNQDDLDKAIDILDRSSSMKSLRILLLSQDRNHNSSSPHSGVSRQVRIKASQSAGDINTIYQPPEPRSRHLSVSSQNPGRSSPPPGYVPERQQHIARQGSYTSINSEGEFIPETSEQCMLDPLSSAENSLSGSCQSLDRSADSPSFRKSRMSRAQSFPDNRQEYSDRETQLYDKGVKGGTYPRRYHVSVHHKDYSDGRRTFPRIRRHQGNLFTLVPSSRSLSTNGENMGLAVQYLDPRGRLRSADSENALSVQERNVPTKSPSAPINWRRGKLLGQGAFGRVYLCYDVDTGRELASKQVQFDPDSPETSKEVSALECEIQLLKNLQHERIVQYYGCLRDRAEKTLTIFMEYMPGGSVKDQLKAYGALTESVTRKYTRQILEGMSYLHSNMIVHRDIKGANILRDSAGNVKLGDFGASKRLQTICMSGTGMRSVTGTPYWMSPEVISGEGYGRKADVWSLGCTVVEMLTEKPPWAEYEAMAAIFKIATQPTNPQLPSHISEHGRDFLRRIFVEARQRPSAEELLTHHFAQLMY
UniProt Q8TDC3, sequence (whole entry, looked up): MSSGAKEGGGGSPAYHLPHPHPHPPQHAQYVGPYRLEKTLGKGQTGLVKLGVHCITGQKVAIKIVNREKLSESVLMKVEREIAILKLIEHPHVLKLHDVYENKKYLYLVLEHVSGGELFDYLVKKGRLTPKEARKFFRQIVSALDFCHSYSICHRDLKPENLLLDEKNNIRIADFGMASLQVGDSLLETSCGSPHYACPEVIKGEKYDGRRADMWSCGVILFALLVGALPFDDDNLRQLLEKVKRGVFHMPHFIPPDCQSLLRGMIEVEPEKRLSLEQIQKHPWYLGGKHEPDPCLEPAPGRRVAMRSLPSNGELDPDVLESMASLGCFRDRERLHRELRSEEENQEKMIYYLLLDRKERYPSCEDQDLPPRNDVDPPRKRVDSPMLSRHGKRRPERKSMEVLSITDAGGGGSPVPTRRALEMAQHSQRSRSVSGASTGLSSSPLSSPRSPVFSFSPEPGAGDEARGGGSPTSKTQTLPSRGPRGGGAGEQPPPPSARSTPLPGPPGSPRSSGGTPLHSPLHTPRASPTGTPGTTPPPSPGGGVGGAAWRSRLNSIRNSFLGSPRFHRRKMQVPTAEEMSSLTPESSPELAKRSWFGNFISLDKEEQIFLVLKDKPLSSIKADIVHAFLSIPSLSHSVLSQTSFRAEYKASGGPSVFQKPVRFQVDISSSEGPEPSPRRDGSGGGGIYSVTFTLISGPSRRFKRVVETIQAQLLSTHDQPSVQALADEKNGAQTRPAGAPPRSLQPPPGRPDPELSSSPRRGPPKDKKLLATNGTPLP
UniProt O96013, sequence (whole entry, looked up): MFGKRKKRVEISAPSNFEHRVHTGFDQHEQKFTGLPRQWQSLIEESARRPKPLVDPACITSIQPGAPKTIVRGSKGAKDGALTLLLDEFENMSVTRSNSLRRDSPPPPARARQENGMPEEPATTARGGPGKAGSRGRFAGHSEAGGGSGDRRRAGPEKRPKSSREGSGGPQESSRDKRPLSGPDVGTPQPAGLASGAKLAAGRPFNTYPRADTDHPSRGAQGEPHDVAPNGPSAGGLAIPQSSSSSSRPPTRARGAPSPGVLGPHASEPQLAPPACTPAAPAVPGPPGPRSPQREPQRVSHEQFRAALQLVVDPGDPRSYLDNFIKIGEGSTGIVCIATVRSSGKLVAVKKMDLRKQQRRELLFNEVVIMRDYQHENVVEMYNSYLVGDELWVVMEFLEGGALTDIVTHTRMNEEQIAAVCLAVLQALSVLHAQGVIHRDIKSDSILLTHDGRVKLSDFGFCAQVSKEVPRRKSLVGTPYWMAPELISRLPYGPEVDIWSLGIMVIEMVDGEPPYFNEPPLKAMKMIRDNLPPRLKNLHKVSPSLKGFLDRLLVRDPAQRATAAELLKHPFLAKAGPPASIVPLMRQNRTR
UniProt P23458, sequence (whole entry, looked up): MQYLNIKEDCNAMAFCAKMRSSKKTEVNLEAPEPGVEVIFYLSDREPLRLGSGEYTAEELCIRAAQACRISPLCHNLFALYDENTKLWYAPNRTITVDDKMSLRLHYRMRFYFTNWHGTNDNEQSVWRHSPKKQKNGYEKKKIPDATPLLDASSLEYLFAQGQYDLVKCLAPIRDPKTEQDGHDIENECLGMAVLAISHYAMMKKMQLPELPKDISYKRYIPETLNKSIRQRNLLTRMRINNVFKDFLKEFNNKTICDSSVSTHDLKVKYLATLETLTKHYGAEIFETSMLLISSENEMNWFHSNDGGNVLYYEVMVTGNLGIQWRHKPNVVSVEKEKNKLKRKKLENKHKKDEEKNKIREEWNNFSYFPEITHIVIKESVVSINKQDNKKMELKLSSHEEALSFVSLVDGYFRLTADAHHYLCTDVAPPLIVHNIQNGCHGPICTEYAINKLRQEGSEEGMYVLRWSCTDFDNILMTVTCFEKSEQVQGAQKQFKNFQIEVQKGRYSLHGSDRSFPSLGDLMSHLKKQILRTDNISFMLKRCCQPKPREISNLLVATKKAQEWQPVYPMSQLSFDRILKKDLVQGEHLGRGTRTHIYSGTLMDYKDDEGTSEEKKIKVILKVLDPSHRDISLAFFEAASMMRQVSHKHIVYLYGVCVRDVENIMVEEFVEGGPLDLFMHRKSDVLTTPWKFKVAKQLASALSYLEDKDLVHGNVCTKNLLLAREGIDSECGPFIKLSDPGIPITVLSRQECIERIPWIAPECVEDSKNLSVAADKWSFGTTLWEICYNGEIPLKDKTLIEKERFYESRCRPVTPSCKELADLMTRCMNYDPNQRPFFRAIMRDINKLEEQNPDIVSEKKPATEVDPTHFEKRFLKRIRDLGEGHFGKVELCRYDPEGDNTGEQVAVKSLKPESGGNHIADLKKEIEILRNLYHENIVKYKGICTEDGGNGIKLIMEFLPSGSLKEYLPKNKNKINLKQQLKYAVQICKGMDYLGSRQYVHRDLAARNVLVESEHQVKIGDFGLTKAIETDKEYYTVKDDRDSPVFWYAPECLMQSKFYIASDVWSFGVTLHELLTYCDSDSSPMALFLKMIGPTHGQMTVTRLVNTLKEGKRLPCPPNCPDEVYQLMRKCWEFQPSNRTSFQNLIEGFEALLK
UniProt P22607, sequence (whole entry, looked up): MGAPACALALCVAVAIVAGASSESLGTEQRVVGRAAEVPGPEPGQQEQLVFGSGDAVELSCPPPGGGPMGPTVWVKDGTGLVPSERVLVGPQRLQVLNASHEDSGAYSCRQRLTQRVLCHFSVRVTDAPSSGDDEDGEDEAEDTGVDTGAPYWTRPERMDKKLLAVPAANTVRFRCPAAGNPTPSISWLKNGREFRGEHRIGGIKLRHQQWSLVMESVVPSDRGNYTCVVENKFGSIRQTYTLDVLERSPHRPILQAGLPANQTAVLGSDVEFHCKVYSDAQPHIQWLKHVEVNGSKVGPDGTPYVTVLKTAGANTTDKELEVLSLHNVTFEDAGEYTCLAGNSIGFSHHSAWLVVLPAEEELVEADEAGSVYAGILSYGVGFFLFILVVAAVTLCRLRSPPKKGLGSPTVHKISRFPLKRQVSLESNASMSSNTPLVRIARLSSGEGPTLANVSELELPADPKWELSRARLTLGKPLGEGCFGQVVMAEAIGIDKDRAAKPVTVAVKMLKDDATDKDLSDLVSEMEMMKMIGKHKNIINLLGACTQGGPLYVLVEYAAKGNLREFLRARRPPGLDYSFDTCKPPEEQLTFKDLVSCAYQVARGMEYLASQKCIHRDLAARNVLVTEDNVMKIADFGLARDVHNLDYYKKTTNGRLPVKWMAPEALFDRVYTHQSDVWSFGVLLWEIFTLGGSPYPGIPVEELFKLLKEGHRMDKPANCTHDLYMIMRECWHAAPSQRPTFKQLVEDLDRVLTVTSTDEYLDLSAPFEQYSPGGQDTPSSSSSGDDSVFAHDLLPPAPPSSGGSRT
UniProt P45983, sequence (whole entry, looked up): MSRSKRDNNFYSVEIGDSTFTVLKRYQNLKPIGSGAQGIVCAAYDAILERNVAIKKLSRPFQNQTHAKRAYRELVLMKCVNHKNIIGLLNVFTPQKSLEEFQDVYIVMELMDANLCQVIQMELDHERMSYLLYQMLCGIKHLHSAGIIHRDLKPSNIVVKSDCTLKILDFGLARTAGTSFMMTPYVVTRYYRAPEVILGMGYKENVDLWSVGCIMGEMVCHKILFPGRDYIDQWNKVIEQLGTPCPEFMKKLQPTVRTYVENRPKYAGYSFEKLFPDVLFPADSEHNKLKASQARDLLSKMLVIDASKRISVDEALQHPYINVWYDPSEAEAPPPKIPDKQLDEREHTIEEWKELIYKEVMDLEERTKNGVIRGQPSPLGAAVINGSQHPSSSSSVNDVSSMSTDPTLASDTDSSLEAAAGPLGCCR

Series 1 — sample: FeSSIF; time: 24 h; pH: 5.0
| SMILES | kinetic solubility [µM] |
| --- | --- |
| Cc1ccc(O)c(C)c1-c1cnc2[nH]c(-c3cnc(N4CCC(CN5CCC(c6ccc(NC7CCC(=O)NC7=O)cc6F)CC5)CC4)nc3)cc2c1C#N (stereo not drawn) | 144 (≈ 107 µg/mL) |
| Cc1ccc(O)c(C)c1-c1cnc2[nH]c(-c3cnc(N4CCC5(CC4)CC(N4CCN(c6ccc(NC7CCC(=O)NC7=O)cc6F)CC4)CO5)nc3)cc2c1C#N (stereo not drawn) | 156 (≈ 122 µg/mL) |
| Cc1ccc(O)c(C)c1-c1cnc2[nH]c(-c3cnc(N4CCC(CN5CCN(c6cc7c(cc6F)c(N6CCC(=O)NC6=O)nn7C)CC5)CC4)nc3)cc2c1C#N | 125 (≈ 97.9 µg/mL) |

Series 2 — mode: inhibitor; method: FLIPR membrane potential; cell line: CHO-BC cells; tested at: 30 µM; setting: 30 µM cinromide as 0%; with: 1.5 mM L-leucine; reference: uninhibited cells
Target: Sodium-dependent neutral amino acid transporter B(0)AT1 (SLC6A19, Homo sapiens, UniProt Q695T7)
UniProt Q695T7, sequence (whole entry, looked up): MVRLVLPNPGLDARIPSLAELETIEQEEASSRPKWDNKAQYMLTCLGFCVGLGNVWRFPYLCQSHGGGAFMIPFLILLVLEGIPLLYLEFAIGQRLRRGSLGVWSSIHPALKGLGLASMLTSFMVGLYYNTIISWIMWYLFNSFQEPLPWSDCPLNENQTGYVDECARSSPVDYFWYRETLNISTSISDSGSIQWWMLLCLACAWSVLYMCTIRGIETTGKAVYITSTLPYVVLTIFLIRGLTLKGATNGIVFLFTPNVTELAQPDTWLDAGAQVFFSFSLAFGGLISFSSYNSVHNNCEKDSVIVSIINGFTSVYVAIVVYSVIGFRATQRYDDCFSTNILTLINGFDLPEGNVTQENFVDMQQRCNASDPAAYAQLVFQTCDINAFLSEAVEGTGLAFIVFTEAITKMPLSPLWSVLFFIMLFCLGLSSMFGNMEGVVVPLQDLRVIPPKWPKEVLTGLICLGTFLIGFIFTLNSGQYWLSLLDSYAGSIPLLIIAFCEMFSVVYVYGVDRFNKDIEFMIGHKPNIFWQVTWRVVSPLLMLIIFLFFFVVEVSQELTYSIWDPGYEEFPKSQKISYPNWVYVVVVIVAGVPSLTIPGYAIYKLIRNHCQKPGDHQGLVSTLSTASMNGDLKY
| SMILES | remaining activity [%] |
| --- | --- |
| Cc1cc(OCC(=O)NC(C)C)ccc1I | -3 ± 1 |
| Cc1cc(OCC(=O)NCCO)cc(C)c1Cl | 109 ± 10 |
| CCCCCCNC(=O)COc1cc(C)c(Cl)c(C)c1 | 110 ± 8 |
| Cc1cc(OCC(=O)NCCc2ccccc2)cc(C)c1Cl | 95 ± 6 |
| CC(C)NC(=O)COc1ccc(Br)cc1 | 21 ± 2 |
| CCC(C)NC(=O)COc1cc(C)c(Cl)c(C)c1 (racemic) | 108 ± 12 |
| Cc1cc(OCC(=O)NC(C)(C)C)cc(C)c1Cl | 116 ± 4 |
| CC(C)NC(=O)CSc1ccc(Cl)cc1 | 10 ± 4 |
| Cc1cc(OCC(=O)NCC(C)C)cc(C)c1Cl | 84 ± 11 |
| CC(C)NC(=O)COC(c1ccccc1)c1ccccc1 | 82 ± 11 |
| Cc1cc(NCC(=O)NC(C)C)cc(C)c1Br | -2 ± 2 |
| CCCNC(=O)COc1cc(C)c(Cl)c(C)c1 | 11 ± 2 |
| CC(C)NC(=O)COc1ccc(I)cc1 | 9 ± 2 |
| Cc1cc(OCC(=O)Nc2ccccc2)cc(C)c1Cl | 109 ± 6 |
| Cc1cc(OCC(=O)NC(C)C)ccc1Br | -3 ± 1 |

Series 3 — organism: Arabidopsis thaliana; strain: Col-0; tested at: 25 µg/mL; setting: seed germination, single repetition
| SMILES | hypocotyl length |
| --- | --- |
| CN1C(=O)C(O)(C(=O)O)Oc2cc(F)ccc21 (stereo not drawn) | 1.86 cm and 1.88 cm and 1.8 cm and 1.9 cm and 1.84 cm |
| COc1ccc2c(c1)OC(O)(C(=O)O)C(=O)N2Cc1ccccc1 (stereo not drawn) | 1.64 cm and 1.63 cm and 1.76 cm and 1.65 cm and 1.53 cm |
| O=C(O)C1(O)Oc2cc(Cl)ccc2N(Cc2ccccc2)C1=O (stereo not drawn) | 1.67 cm and 1.7 cm and 1.63 cm and 1.6 cm and 1.62 cm |
| O=C(O)C1(O)Oc2ccccc2N(Cc2ccccc2)C1=O (stereo not drawn) | 1.46 cm and 1.47 cm and 1.48 cm and 1.52 cm and 1.53 cm |
| CC(C)(C)c1ccc(Oc2ccc3c(c2)OC(O)(C(=O)O)C(=O)N3Cc2ccccc2)cc1 (stereo not drawn) | 1.77 cm and 1.73 cm and 1.75 cm and 1.72 cm and 1.7 cm |

Series 4 — tested at: 1 µM
Compound: CC[C@@]1(c2ccccc2)C2=C(CC(C)(C)CC2=O)Nc2n[nH]cc21
| target | effect on | method | reference | remaining binding [%] |
| --- | --- | --- | --- | --- |
| MAPKAPK2 (Homo sapiens, UniProt P49137) | kinase binding | KINOMEscan | DMSO control | 100 |
| ACVRL1 (Homo sapiens, UniProt P37023) | kinase binding | KINOMEscan | DMSO control | 100 |
| BRSK1 (Homo sapiens, UniProt Q8TDC3) | binding | competition with immobilised ligand |  | 92 |
| PAK4 (Homo sapiens, UniProt O96013) | kinase binding | KINOMEscan | DMSO control | 100 |
| WNK3 (Homo sapiens, UniProt Q9BYP7) | binding | competition with immobilised ligand |  | 100 |
| Insulin receptor (INSR, Homo sapiens, UniProt P06213) | kinase binding | KINOMEscan | DMSO control | 100 |
| Tyrosine-protein kinase JAK1, JH2 (JAK1, Homo sapiens, UniProt P23458) | binding | competition with immobilised ligand |  | 99 |
| PIP4K2B (Homo sapiens, UniProt P78356) | kinase binding | KINOMEscan | DMSO control | 100 |
| ALK (Homo sapiens, UniProt Q9UM73, L1196M) | binding | competition with immobilised ligand |  | 76 |
| MST1R (Homo sapiens, UniProt Q04912) | binding | competition with immobilised ligand |  | 66 |
| WNK4 (Homo sapiens, UniProt Q96J92) | kinase binding | KINOMEscan | DMSO control | 83 |
| PRKD2 (Homo sapiens, UniProt Q9BZL6) | binding | competition with immobilised ligand |  | 76 |
| NEK2 (Homo sapiens, UniProt P51955) | binding | competition with immobilised ligand |  | 89 |
| FGFR3 (Homo sapiens, UniProt P22607) | binding | competition with immobilised ligand |  | 100 |
| EPHB3 (Homo sapiens, UniProt P54753) | kinase binding | KINOMEscan | DMSO control | 100 |
| AXL (Homo sapiens, UniProt P30530) | binding | competition with immobilised ligand |  | 100 |
| Tyrosine-protein kinase ABL1, phosphorylated (ABL1, Homo sapiens, UniProt P00519, H396P) | kinase binding | KINOMEscan | DMSO control | 81 |
| MAPK8 (Homo sapiens, UniProt P45983) | binding | competition with immobilised ligand |  | 87 |
| TXK (Homo sapiens, UniProt P42681) | binding | competition with immobilised ligand |  | 100 |
| CRK2 (Plasmodium falciparum, UniProt P61075) | kinase binding | KINOMEscan | DMSO control | 100 |
| MAP3K3 (Homo sapiens, UniProt Q99759) | kinase binding | KINOMEscan | DMSO control | 95 |
| STK32C (Homo sapiens, UniProt Q86UX6) | kinase binding | KINOMEscan | DMSO control | 100 |
